Measurements of several laboratories.
Lines come from different studies, so protocols differ. ± gives the spread as reported.

| Compound | assay | test system | conditions | scale | endpoint | result |
| --- | --- | --- | --- | --- | --- | --- |
| Cc1ccc(/C=C/C(=O)O)cc1-c1cc2c(cc1C)C(C)(C)CCC2(C)C | RNA sequencing, measured: Alb mRNA | rat, brain | dose not given, 24 h, single dose | baseline: vehicle | log2 fold change | -2.67 |
| CN(C)CCN(Cc1ccccc1)C(=O)c1cc(-c2ccc(F)cc2)n2nc(C(C)(C)C)cc2n1 |  | Tg6799 mouse, cortex | dose not given, 4 months | baseline: vehicle | Aβ plaque area | no effect |
| CC(C)C[C@@H](NC(=O)[C@H]1CCCN1C(=O)[C@H]1CCCN1C(=O)[C@@H](CCCNC(=N)N)NC(=O)[C@@H](CCCNC(=N)N)NC(=O)[C@@H](CCCNC(=N)N)NC(=O)[C@@H](CCC(N)=O)NC(=O)[C@@H](CCCNC(=N)N)NC(=O)[C@@H](CCCNC(=N)N)NC(=O)[C@@H](CCCCN)NC(=O)[C@@H](CCCCN)NC(=O)[C@@H](CCCNC(=N)N)NC(=O)CNC(=O)[C@H](N)Cc1ccc(O)cc1)C(=O)N[C@H](CCCNC(=N)N)C(=O)N[C@H](CCCCN)C(=O)N[C@H](CCCCN)C(=O)N[C@H](CCCCN)C(=O)N[C@H](CCCCN)C(=O)N[C@H](CCCCN)C(=O)N[C@H](Cc1c[nH]cn1)C(N)=O | 8-Br-cGMP induced dilation | mouse, isolated mesenteric arteries | intraperitoneal, 10 nmol, 30 min, together with: 50 µM 8-Br-cGMP |  | vasodilation | 12% |
| CCN(CCCCOc1ccc(CCC(=O)N2CCC(Cc3ccccc3)CC2)cc1OC)Cc1ccccc1 | decrease, ELISA, measured: IL-6 | APP/PS1 transgenic mice, cerebral cortex | dose not given |  | protein level | decreased |
| CCn1c2ccccc2c2cc(C(O)c3ccc(C)c4ccccc34)ccc21 (centres unmarked) | tubulin polymerisation, inhibitor, absorbance |  |  |  | IC50 | 1400 nM |
| COc1ccc([N+](=O)[O-])cc1NC(=O)CCC(=O)[O][Zn][O]C(=O)CCC(=O)Nc1cc([N+](=O)[O-])ccc1OC.c1ccncc1 | antioxidant activity |  | 1000 µg/mL |  | DPPH scavenging | 74.2 ± 0.77% |
| COC[C@@H](NC(C)=O)C(=O)NCc1ccc(OCc2cccc(Cl)c2)cc1 | maximal electroshock seizure test | mouse | ip, time of peak effect |  | ED50 | 16 mg/kg |
| CC(C)C[C@H](NC(=O)CN)C(=O)NCC(=O)N[C@@H](CCCCN)C(=O)N[C@@H](CC(C)C)C(=O)N[C@@H](CC(C)C)C(=O)N[C@@H](Cc1c[nH]cn1)C(=O)N[C@@H](C)C(=O)N[C@@H](C)C(=O)N[C@@H](CCCCN)C(=O)N[C@@H](CCCCN)C(=O)N[C@@H](CC(C)C)C(=O)NCC(=O)N[C@@H](CCCCN)C(=O)N[C@@H](C)C(=O)N[C@@H](Cc1c[nH]c2ccccc12)C(=O)N[C@@H](CC(C)C)C(=O)NCC(=O)N[C@@H](CCC(=O)O)C(=O)N[C@@H](CC(C)C)C(=O)N[C@@H](CC(C)C)C(=O)N[C@@H](C)C(=O)N[C@@H](C)C(=O)O |  | POPC/POPG 1:1 vesicles |  |  | static quenching constant | 140 M⁻¹ |
| NCCCC[C@H](NC(=O)CNC(=O)CNC(=O)[C@H](CCCCN)NC(=O)CNC(=O)CNC(=O)CNC(=O)[C@H](CCCCN)NC(=O)CNC(=O)CNC(=O)[C@H](CCCCN)NC(=O)CNC(=O)CNC(=O)CNC(=O)[C@H](CCCCN)NC(=O)CNC(=O)CNC(=O)[C@H](CCCCN)NC(=O)CNC(=O)CNC(=O)CNC(=O)[C@H](CCCCN)NC(=O)CNC(=O)CNC(=O)[C@H](CCCCN)NC(=O)[C@H](CO)NC(=O)[C@H](Cc1ccc(O)cc1)NC(=O)CNC(=O)CNC(=O)CN)C(=O)NCC(=O)O |  | human ALκ4 amyloid extract | 1 h, room temperature | baseline: 1 M NaCl over PBS | binding ratio | 0.04 |
| Cc1cc(Nc2nc(C[C@@]3(C(=O)O)CCN(Cc4cccc(Cl)c4F)[C@H](C)C3)cc(C)c2F)[nH]n1 |  | mouse, NCI-H446 xenograft | oral, 10 mg/kg once daily, monotherapy |  | tumour growth inhibition | 78% |
| C[C@H](NC(=O)[C@H](CCC(N)=O)NC(=O)[C@H](C)NC(=O)[C@H](CCCCN)NC(=O)[C@H](CCC(N)=O)NC(=O)[C@H](C)NC(=O)[C@H](CCCCN)NC(=O)[C@H](CCC(N)=O)NC(=O)[C@H](C)NC(=O)[C@H](CCC(N)=O)NC(=O)[C@H](CCCCN)NC(=O)[C@H](C)NC(=O)[C@H](CCC(N)=O)NC(=O)[C@H](CCCCN)NC(=O)[C@H](C)NC(=O)[C@H](CCC(N)=O)NC(=O)[C@H](C)NC(=O)[C@H](CCCCN)NC(=O)[C@H](CCC(N)=O)NC(=O)[C@H](C)NC(=O)[C@H](CCCCN)NC(=O)[C@H](CO)NC(=O)[C@H](Cc1ccc(O)cc1)NC(=O)CNC(=O)CNC(=O)CN)C(=O)N[C@@H](CCCCN)C(=O)N[C@@H](CCC(N)=O)C(=O)N[C@@H](C)C(=O)N[C@@H](CCCCN)C(=O)N[C@@H](CCC(N)=O)C(=O)O |  | human ALκ4 amyloid extract | 1 h, room temperature | baseline: 1 M NaCl over PBS | binding ratio | 0.004 |
| CCCCCCCCCCCCCCCC(=O)N[C@@H](CCC(=O)NCCOCCOCCC(=O)NCCOCCOCCC(=O)NCCCC[C@H](NC(=O)[C@H](CC(=O)O)NC(=O)[C@H](CC(C)C)NC(=O)[C@H](Cc1ccc(O)cc1)NC(=O)[C@H](CCCCN)NC(=O)[C@H](CO)NC(=O)[C@H](Cc1ccc(O)cc1)NC(=O)[C@H](CC(=O)O)NC(=O)[C@H](CO)NC(=O)[C@@H](NC(=O)[C@H](Cc1ccccc1)NC(=O)[C@@H](NC(=O)CNC(=O)[C@H](CCC(N)=O)NC(=O)[C@@H](CO)NC(=O)[C@@H](N)Cc1c[nH]cn1)[C@@H](C)O)[C@@H](C)O)C(=O)N[C@@H](CCCNC(=N)N)C(=O)N[C@@H](CCCNC(=N)N)C(=O)N[C@@H](C)C(=O)N[C@@H](CCC(N)=O)C(=O)N[C@@H](CC(=O)O)C(=O)N[C@@H](Cc1ccccc1)C(=O)N[C@H](C(=O)N[C@@H](CCC(N)=O)C(=O)N[C@@H](Cc1c[nH]c2ccccc12)C(=O)N[C@@H](CC(C)C)C(=O)N[C@@H](CC(C)C)C(=O)N[C@@H](CC(N)=O)C(=O)N[C@H](C(=O)NCC(=O)NCC(=O)N1CCC[C@H]1C(=O)N[C@@H](CO)C(=O)N[C@@H](CO)C(=O)NCC(=O)N[C@@H](C)C(=O)N1CCC[C@H]1C(=O)N1CCC[C@H]1C(=O)N1CCC[C@H]1C(=O)N[C@@H](CO)C(N)=O)[C@@H](C)O)C(C)C)C(=O)O |  | Sprague-Dawley rat bile duct ligation, liver | dose not given |  | α-SMA expression | decreased |
| CC[C@H](C)[C@H](NC(=O)[C@@H](NC(=O)[C@H](CC(=O)O)NC(C)=O)[C@@H](C)O)C(=O)N[C@@H](CCCNC(=N)N)C(=O)N[C@@H](CC(C)C)C(=O)N[C@@H](CC(C)C)C(=O)N[C@@H](Cc1ccccc1)C(=O)N[C@@H](CCC(N)=O)C(=O)N[C@@H](CC(C)C)C(=O)N[C@@H](CCSC)C(=O)N[C@@H](CCCNC(=N)N)C(=O)N1CCC[C@H]1C(=O)N1CCC[C@H]1C(=O)N[C@@H](CC(N)=O)C(=O)N[C@@H](CCSC)C(=O)N[C@H](C(=O)N1CCC[C@H]1C(=O)N[C@@H](C)C(=O)N[C@H](C(=O)N[C@@H](CC(N)=O)C(=O)N[C@@H](C)C(N)=O)C(C)C)[C@@H](C)O | measured: HA-19 tetramer | antigen-experienced tetramer+ CD4 T cells, healthy adults, HLA-DRB1*0101 | dose not given |  | α4β7− CCR9+ cells | 4% |
| N[C@@H](Cc1ccc(O)cc1)C(=O)N1CCC[C@H]1C(=O)NCC(=O)NCC(=O)O | diketopiperazine formation, Arrhenius plot, ESI-MS | 1-propanol | 70, 80, 90 °C, 0.5% acetic acid |  | activation energy | 18.4 ± 3.82 kcal/mol |
| COc1ccc2c(c1)C(C)(C)C(/C=C/C1=C(Oc3ccc(C(=O)NCCCCOc4cc(CN(Cc5ccccn5)Cc5ccccn5)cc(CN(Cc5ccccn5)Cc5ccccn5)c4)cc3)C(=C/C=C3/N(CCCCS(=O)(=O)[O-])c4ccc(OC)cc4C3(C)C)CCC1)=[N+]2CCCCS(=O)(=O)[O-].O=[N+]([O-])O.O=[N+]([O-])[O-].O=[N+]([O-])[O-].O=[N+]([O-])[O-].[Zn+2].[Zn+2] | photoacoustic imaging | BALB/c mouse S. aureus myositis, infected muscle | intravenous, dose not given, 12 h | baseline: post- over pre-injection | signal-to-background ratio | 2.17 ± 0.05 |
| COc1ccc(CCN2CCC[C@H](CN3CCc4cc(OC)c(OC)cc4CC3=O)C2)cc1OC | VTA dopamine neurons | CSDS-susceptible male mice | intraperitoneal, 20 mg/kg | baseline: baseline | burst firing | decreased |
| C=C(NC(=O)C(=C)NC(=O)c1csc(C2=NC3c4csc(n4)C4NC(=O)c5csc(n5)C(C(C)(O)C(C)O)NC(=O)C5CSC(=N5)C(=CC)NC(=O)C(C(C)O)NC(=O)c5csc(n5)C3(CC2)NC(=O)C(C)NC(=O)C(=C)NC(=O)C(C(C)C)NC2C=Cc3c(C(C)O)cc(nc3C2O)C(=O)OC4C)n1)C(N)=O (centres unmarked) | protein synthesis, coupled transcription-translation, measured: luciferase | Escherichia coli S30 extract | 1 h, 37 °C |  | IC50 | > 3280 nM |

Some of these lines once more:
| Compound | assay | test system | conditions | scale | endpoint | result |
| --- | --- | --- | --- | --- | --- | --- |
| CCN(CCCCOc1ccc(CCC(=O)N2CCC(Cc3ccccc3)CC2)cc1OC)Cc1ccccc1 | decrease, ELISA, measured: IL-6 | APP/PS1 transgenic mice, cerebral cortex | dose not given |  | protein level | decreased |
